Measurements pooled from the literature.
Protocols differ between the studies behind these lines.
Organism: Acinetobacter baumannii

Cc1cc(Nc2ccc(S(F)(F)(F)(F)F)cc2)n2ccnc2n1  MIC (TMH1 clinical isolate): 1.09 µg/mL
CC(C)C[C@@H]1NC(=O)[C@@H](Cc2ccccc2)NC(=O)[C@H](CCN)NC(=O)[C@@H](NC(=O)[C@H](CCN)NC(=O)[C@@H](N)[C@@H](C)O)CCNC(=O)[C@H]([C@@H](C)O)NC(=O)[C@H](CCN)NC(=O)[C@H](CCN)NC1=O  MIC (ATCC 17978; in combination, checkerboard, with: rifampicin): 3.13 µg/mL
CC1(C)S[C@@H]2[C@H](/N=C/N3CCCCCC3)C(=O)N2[C@H]1C(=O)O  MIC (broth microdilution; ATCC 17978): 2.5 µM
CC1(C)S[C@@H]2[C@H](NC(=O)[C@H](N)c3ccc(O)cc3)C(=O)N2[C@H]1C(=O)O  MIC (broth microdilution; 24 h, 37 °C, clinical isolate): > 400 µM
CN[C@@H]1[C@@H](O[C@H]2O[C@H](CO)[C@@H](N)[C@H](O)[C@H]2O)OC2C[C@@H](N)[C@@H](O[C@H]3[C@H](O)[C@@H](O)[C@H](N)C[C@@H]3N)OC2[C@@H]1O (some centres unmarked)  MIC (broth microdilution; NCTC 13424; 20 h, ambient air): 8 µg/mL
CCC[C@@H]1C[C@@H](C(=O)N[C@@H]([C@H]2O[C@H](SC)[C@H](O)[C@@H](O)[C@H]2O)[C@H](C)Cl)N(C)C1  MIC (broth microdilution; ATCC 17978): 320 µM
CN(C)c1ccc(O)c2c1C[C@H]1C[C@H]3[C@H](N(C)C)C(O)=C(C(N)=O)C(=O)[C@@]3(O)C(O)=C1C2=O  MIC (broth microdilution; NCTC 13424; 20 h, 5% CO2): 4 µg/mL
CC[C@H](C)[C@H](NC(=O)[C@H](CCCCN)NC(=O)[C@H](CCC(=O)O)NC(=O)[C@H](CCCCN)NC(=O)[C@H](CO)NC(=O)[C@H](CCCCN)NC(=O)[C@H](CCCNC(=N)N)NC(=O)[C@H](Cc1ccccc1)NC(=O)[C@H](Cc1ccccc1)NC(=O)[C@H](CC(=O)O)NC(=O)CNC(=O)[C@H](CC(C)C)NC(=O)[C@@H](N)CC(C)C)C(=O)NCC(=O)N[C@@H](CCCCN)C(=O)N[C@@H](CCC(=O)O)C(=O)N[C@@H](Cc1ccccc1)C(=O)N[C@@H](CCCCN)C(=O)N[C@@H](CCCNC(=N)N)C(=O)N[C@H](C(=O)N[C@H](C(=O)N[C@@H](CCC(N)=O)C(=O)N[C@@H](CCCNC(=N)N)C(=O)N[C@H](C(=O)N[C@@H](CCCCN)C(=O)N[C@@H](CC(=O)O)C(=O)N[C@@H](Cc1ccccc1)C(=O)N[C@@H](CC(C)C)C(=O)N[C@@H](CCCNC(=N)N)C(=O)N[C@@H](CC(N)=O)C(=O)N[C@@H](CC(C)C)C(=O)N[C@H](C(=O)N1CCC[C@H]1C(=O)N[C@@H](CCCNC(=N)N)C(=O)N[C@H](C(=O)N[C@@H](CCC(=O)O)C(=O)N[C@@H](CO)C(=O)O)[C@@H](C)O)C(C)C)[C@@H](C)CC)C(C)C)[C@@H](C)CC  MIC (ATCC 19606; highest concentration 50 µM): 8.35 µM
FC(F)(F)Oc1ccc(OCCn2c(CNCC34CC5CC(CC(C5)C3)C4)nc3ccccc32)cc1  MIC (ATCC 17961): > 128 µg/mL
NC[C@H]1O[C@H](O[C@H]2[C@H](O)[C@@H](O[C@H]3O[C@H](CO)[C@@H](O)[C@H](N)[C@H]3O)[C@H](N)C[C@@H]2N)[C@H](N)C[C@@H]1O  MIC (broth microdilution; NCTC 13424; 20 h, ambient air): > 512 µg/mL
CC1(C)S[C@@H]2[C@H](NC(=O)[C@H](N)c3ccccc3)C(=O)N2[C@H]1C(=O)O  MIC (broth microdilution; ATCC 19606, susceptible; 18 h, 37 °C, LED light 10 min, 1.57 mW): > 128 µM
C[C@H](N)C(=O)N[C@H](C(=O)N[C@@H](CS)C(=O)N[C@@H](Cc1ccc(O)cc1)C(=O)N[C@@H](CS)C(=O)N[C@@H](CCCNC(=N)N)C(=O)N[C@H](C(=O)NCC(=O)N[C@@H](CCCNC(=N)N)C(=O)N[C@@H](CS)C(=O)N[C@@H](C)C(=O)N[C@H](C(=O)N[C@@H](CCCNC(=N)N)C(=O)O)[C@@H](C)O)[C@@H](C)O)[C@@H](C)O  MIC (broth turbidity): > 100 µM
CC1(C)S[C@@H]2[C@H](NC(=O)[C@H](N)c3ccccc3)C(=O)N2[C@H]1C(=O)O  MIC (broth microdilution; 24 h, 37 °C, clinical isolate): > 400 µM
O=[N+]([O-])c1ccc(O)c2ncccc12  MIC (1794): 9.38 µM
C[C@H]1COc2c(N3CCN(C)CC3)c(F)cc3c(=O)c(C(=O)O)cn1c23  MIC (broth microdilution; NCTC 13424; 20 h, ambient air): 32 µg/mL
O=[N+]([O-])c1ccc2[nH]c(CNCC34CC5CC(CC(C5)C3)C4)nc2c1  MIC (ATCC 17961): > 128 µg/mL
Cc1c(CN(C)C(=O)/C=C/c2cnc3c(c2)CC(NC(=O)OC(C)(C)C)C(=O)N3)oc2ccccc12 (centres unmarked)  MIC (broth microdilution; AR-0288): > 32 µg/mL
O=C(N[C@H](CO)[C@H](O)c1ccc([N+](=O)[O-])cc1)C(Cl)Cl  MIC (broth microdilution; NCTC 13424; 20 h, ambient air): 128 µg/mL
CC(C)(O/N=C(\C(=O)N[C@@H]1C(=O)N2C(C(=O)[O-])=C(C[n+]3ccccc3)CS[C@H]12)c1csc(N)n1)C(=O)O  MIC (broth microdilution; ATCC 17978): 5 µM
CN(C)c1ccc2nc3ccc(=[N+](C)C)cc-3sc2c1  MIC (ATCC BAA-1797, resistant; 18 h, 37 °C, dark): > 128 µM
CO[C@@H]1[C@@H](OC(N)=O)[C@@H](O)[C@H](Oc2ccc3c(O)c(NC(=O)c4ccc(O)c(CC=C(C)C)c4)c(=O)oc3c2C)OC1(C)C  MIC (broth microdilution; ATCC 17978): 20 µM
CC[C@H](C)CCCCC(=O)N[C@@H](CCN)C(=O)N[C@H](C(=O)N[C@@H](CCN)C(=O)N[C@H]1CCNC(=O)[C@H]([C@@H](C)O)NC(=O)[C@H](CCN)NC(=O)[C@H](CCN)NC(=O)[C@H](CC(C)C)NC(=O)[C@@H](CC(C)C)NC(=O)[C@H](CCN)NC1=O)[C@@H](C)O  MIC (broth microdilution; BAA-747): 0.107 µM
CC(NCCC(c1ccccc1)c1ccccc1)c1ccccc1 (centres unmarked)  MIC (efflux-deficient): 8 µg/mL
CO/N=C(\C(=O)N[C@@H]1C(=O)N2C(C(=O)O)=CCS[C@H]12)c1csc(N)n1  MIC (broth microdilution; BNCC 194496): 4 µg/mL
CC(=O)O[C@H]1C[C@@]2(C)[C@@H](C[C@@H](O)[C@H]3[C@@]4(C)CC[C@@H](O)[C@@H](C)[C@@H]4CC[C@@]32C)/C1=C(\CCC=C(C)C)C(=O)O  MIC (broth microdilution; ATCC 17978): 160 µM
C[C@@H](O)[C@H]1C(=O)N2C(C(=O)O)=C(S[C@@H]3CN[C@H](C(=O)N(C)C)C3)[C@H](C)[C@H]12  MIC (HR2 clinical isolate): 8 µg/mL
CNC(C)C1CCC(N)C(OC2C(N)CC(N)C(OC3OCC(C)(O)C(NC)C3O)C2O)O1 (centres unmarked)  MIC (broth microdilution; NCTC 13424; 20 h, ambient air): > 512 µg/mL
CC(C)(O/N=C(\C(=O)N[C@@H]1C(=O)N2C(C(=O)[O-])=C(C[n+]3ccccc3)CS[C@H]12)c1csc(N)n1)C(=O)O  MIC (broth microdilution; A1 clinical isolate; 20 h): 8 µg/mL
NC[C@H]1O[C@H](O[C@H]2[C@H](O)[C@@H](O[C@H]3O[C@H](CO)[C@@H](O)[C@H](N)[C@H]3O)[C@H](N)C[C@@H]2N)[C@H](N)C[C@@H]1O  MIC (broth microdilution; ATCC 17978): 1.3 µM
NC[C@H]1O[C@H](O[C@H]2[C@H](O)[C@@H](O[C@H]3O[C@H](CO)[C@@H](O)[C@H](N)[C@H]3O)[C@H](N)C[C@@H]2N)[C@H](O)[C@@H](O)[C@@H]1O  MIC (broth microdilution; 22933): 4 µM
CC[C@H](C)CCCCC(=O)N[C@@H](CCN)C(=O)N[C@H](C(=O)N[C@@H](CCN)C(=O)N[C@H]1CCNC(=O)[C@H]([C@@H](C)O)NC(=O)[C@H](CCN)NC(=O)[C@H](CCN)NC(=O)[C@H](CC(C)C)NC(=O)[C@@H](Cc2ccccc2)NC(=O)[C@H](CCN)NC1=O)[C@@H](C)O  MIC (ATCC 19606, CAMHB; 20 h, 37 °C): 1 µg/mL
CC(=O)NC[C@H]1CN(c2ccc(N3CCOCC3)c(F)c2)C(=O)O1  MIC (broth microdilution; ATCC 17978): 640 µM
CC1(C)S[C@@H]2[C@H](NC(=O)[C@H](N)c3ccccc3)C(=O)N2[C@H]1C(=O)O  MIC (broth microdilution; BNCC 194496): 16 µg/mL
Oc1c(Br)cc(Br)c2nc3ccccc3nc12  MIC (1794): > 100 µM
COc1ccc2ccc(O)c(/C=N/[C@H]3CCCC[C@H]3/N=C/c3ccc(OCCN4CCCCC4)cc3O)c2c1  MIC (bacterial growth, broth microdilution; carbapenem-resistant clinical isolate): > 40 µM
Cc1c(CN(C)C(=O)/C=C/c2cnc3c(c2)CCC(=O)N3)oc2ccccc12  MIC (broth microdilution; AR-0311): 8 µg/mL
CC[C@H]1OC(=O)[C@H](C)[C@@H](O[C@H]2C[C@@](C)(OC)[C@@H](O)[C@H](C)O2)[C@H](C)[C@@H](O[C@@H]2O[C@H](C)C[C@H](N(C)C)[C@H]2O)[C@](C)(O)C[C@@H](C)CN(C)[C@H](C)[C@@H](O)[C@]1(C)O  MIC (broth microdilution; BNCC 194496): 1 µg/mL
C[C@@H](O)[C@H]1C(=O)N2C(C(=O)O)=C(S[C@@H]3CN[C@H](C(=O)N(C)C)C3)[C@H](C)[C@H]12  MIC (3A1): 48 µg/mL

Repeated from above:
Oc1c(Br)cc(Br)c2nc3ccccc3nc12  MIC (1794): > 100 µM
COc1ccc2ccc(O)c(/C=N/[C@H]3CCCC[C@H]3/N=C/c3ccc(OCCN4CCCCC4)cc3O)c2c1  MIC (bacterial growth, broth microdilution; carbapenem-resistant clinical isolate): > 40 µM
Cc1c(CN(C)C(=O)/C=C/c2cnc3c(c2)CCC(=O)N3)oc2ccccc12  MIC (broth microdilution; AR-0311): 8 µg/mL
CC[C@H]1OC(=O)[C@H](C)[C@@H](O[C@H]2C[C@@](C)(OC)[C@@H](O)[C@H](C)O2)[C@H](C)[C@@H](O[C@@H]2O[C@H](C)C[C@H](N(C)C)[C@H]2O)[C@](C)(O)C[C@@H](C)CN(C)[C@H](C)[C@@H](O)[C@]1(C)O  MIC (broth microdilution; BNCC 194496): 1 µg/mL
